{"data": "Experimental data collected from several papers", "note": "A part holds a random share of what one study measured.", "chain of UniProt Q9Y6M4 (whole entry, looked up)": "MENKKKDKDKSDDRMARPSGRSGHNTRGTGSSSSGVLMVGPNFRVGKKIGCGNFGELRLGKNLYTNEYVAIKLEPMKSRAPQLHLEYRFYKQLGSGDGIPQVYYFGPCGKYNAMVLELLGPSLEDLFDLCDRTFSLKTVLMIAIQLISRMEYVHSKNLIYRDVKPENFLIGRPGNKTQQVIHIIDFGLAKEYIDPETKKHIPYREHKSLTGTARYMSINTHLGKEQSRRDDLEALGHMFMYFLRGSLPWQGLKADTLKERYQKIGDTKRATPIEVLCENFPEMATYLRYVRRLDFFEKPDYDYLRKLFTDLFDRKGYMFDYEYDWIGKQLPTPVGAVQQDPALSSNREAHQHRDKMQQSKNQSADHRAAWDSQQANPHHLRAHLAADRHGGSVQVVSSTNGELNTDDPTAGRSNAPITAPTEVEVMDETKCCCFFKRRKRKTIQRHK", "chain of UniProt Q04912 (whole entry, looked up)": "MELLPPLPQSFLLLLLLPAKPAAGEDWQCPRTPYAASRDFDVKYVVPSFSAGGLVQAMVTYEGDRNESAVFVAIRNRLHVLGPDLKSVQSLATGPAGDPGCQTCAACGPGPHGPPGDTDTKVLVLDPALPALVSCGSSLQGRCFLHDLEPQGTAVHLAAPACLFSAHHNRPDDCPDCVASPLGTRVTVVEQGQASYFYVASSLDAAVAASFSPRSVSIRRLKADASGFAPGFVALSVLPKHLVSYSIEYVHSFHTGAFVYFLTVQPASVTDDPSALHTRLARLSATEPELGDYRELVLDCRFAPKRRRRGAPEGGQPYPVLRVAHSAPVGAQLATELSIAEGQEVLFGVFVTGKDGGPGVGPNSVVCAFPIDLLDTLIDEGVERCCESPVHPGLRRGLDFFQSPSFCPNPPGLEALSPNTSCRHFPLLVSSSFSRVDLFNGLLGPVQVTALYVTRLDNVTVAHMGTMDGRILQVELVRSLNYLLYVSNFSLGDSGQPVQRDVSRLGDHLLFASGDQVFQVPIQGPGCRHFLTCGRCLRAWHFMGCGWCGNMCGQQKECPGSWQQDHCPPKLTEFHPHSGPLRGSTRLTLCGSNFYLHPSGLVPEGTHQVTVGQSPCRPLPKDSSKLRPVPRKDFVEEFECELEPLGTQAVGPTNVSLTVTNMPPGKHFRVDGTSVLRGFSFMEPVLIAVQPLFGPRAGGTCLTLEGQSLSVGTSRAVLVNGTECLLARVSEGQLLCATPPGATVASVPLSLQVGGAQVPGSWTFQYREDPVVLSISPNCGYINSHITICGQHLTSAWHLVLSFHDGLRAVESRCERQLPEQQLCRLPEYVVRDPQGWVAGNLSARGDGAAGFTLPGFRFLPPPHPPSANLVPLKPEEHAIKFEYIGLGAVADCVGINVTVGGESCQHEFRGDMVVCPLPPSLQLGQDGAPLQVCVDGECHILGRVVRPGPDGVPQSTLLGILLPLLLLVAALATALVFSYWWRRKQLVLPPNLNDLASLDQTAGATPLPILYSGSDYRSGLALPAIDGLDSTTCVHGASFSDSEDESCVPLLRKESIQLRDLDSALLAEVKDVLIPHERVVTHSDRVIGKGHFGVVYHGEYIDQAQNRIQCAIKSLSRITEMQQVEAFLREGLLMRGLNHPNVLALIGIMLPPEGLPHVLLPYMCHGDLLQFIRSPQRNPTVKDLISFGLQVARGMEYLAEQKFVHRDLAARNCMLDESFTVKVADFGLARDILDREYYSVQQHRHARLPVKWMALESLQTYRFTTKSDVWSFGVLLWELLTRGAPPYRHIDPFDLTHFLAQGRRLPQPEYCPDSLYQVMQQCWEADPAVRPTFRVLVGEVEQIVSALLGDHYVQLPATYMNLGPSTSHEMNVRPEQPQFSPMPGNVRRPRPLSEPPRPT", "chain of UniProt P27361 (whole entry, looked up)": "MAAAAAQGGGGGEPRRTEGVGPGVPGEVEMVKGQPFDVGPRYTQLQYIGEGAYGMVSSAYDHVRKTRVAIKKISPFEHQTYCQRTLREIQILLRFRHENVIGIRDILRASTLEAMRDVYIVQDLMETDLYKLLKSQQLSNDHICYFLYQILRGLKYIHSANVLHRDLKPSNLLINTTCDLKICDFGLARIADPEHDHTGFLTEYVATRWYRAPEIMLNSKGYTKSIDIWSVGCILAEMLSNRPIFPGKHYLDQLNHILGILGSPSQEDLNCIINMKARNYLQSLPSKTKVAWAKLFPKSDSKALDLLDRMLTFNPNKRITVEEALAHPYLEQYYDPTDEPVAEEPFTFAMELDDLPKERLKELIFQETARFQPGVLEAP", "chain of UniProt Q9UHD2 (whole entry, looked up)": "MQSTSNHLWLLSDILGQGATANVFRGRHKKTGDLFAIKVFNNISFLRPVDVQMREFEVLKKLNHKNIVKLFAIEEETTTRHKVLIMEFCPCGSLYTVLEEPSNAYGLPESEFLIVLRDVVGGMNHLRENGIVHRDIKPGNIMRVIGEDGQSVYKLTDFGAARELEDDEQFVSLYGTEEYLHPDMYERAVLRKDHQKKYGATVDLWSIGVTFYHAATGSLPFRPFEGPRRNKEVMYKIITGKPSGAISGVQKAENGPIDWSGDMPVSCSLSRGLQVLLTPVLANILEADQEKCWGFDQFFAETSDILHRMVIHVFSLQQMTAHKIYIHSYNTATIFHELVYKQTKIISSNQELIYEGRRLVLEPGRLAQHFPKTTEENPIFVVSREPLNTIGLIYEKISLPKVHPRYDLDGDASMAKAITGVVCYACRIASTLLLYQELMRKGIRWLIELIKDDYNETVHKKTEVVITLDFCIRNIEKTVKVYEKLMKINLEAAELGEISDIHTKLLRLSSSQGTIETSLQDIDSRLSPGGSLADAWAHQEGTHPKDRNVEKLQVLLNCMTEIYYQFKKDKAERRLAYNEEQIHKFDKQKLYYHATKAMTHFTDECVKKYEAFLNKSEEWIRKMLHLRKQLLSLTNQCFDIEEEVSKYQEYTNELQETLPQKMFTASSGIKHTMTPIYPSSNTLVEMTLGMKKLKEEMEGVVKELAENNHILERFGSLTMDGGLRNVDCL", "chain of UniProt Q96PY6 (whole entry, looked up)": "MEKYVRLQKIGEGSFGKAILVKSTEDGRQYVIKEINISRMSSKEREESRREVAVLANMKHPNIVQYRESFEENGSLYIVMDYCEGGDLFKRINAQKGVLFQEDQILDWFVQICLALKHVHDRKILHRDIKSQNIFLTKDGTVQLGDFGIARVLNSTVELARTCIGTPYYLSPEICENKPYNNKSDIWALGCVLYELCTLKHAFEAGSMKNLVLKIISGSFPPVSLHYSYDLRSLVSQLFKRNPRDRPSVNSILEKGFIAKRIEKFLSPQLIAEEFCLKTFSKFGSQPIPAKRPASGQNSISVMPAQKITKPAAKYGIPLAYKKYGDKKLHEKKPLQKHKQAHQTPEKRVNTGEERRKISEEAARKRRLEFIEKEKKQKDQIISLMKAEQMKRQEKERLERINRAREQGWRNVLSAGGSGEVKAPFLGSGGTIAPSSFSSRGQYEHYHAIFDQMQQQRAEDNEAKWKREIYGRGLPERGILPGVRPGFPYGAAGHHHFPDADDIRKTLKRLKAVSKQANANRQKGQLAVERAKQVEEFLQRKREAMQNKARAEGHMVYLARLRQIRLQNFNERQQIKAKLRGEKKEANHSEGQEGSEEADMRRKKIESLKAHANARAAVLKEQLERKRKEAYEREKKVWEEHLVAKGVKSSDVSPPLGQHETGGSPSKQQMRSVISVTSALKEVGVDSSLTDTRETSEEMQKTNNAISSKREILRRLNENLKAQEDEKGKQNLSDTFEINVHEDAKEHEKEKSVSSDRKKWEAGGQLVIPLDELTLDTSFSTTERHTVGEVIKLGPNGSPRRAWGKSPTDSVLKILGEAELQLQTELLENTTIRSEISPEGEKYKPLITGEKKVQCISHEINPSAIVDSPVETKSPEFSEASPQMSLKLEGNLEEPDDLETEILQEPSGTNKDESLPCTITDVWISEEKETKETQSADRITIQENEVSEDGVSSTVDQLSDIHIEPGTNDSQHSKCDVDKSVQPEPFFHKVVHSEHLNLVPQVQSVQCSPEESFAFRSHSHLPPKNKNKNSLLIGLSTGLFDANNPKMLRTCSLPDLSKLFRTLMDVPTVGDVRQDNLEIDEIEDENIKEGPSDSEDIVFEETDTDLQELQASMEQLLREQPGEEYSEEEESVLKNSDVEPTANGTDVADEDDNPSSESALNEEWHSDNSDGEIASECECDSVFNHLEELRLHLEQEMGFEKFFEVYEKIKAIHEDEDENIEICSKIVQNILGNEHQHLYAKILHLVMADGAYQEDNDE", "chain of UniProt P49841 (whole entry, looked up)": "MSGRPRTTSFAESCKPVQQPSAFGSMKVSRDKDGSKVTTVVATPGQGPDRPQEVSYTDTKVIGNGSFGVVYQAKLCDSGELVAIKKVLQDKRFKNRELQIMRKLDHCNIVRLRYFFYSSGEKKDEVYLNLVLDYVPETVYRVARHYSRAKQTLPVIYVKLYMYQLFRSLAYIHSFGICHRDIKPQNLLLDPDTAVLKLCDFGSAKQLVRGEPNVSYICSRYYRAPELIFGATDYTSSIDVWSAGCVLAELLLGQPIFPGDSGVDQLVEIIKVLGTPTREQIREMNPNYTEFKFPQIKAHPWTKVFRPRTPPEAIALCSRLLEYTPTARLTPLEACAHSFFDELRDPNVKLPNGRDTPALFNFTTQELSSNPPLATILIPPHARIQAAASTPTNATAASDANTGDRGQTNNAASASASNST"}
{"data": "Set 1", "target": "Translocator protein (Tspo, Rattus norvegicus, UniProt P16257)", "observed": "radioligand binding", "method": "radioligand displacement", "concentration": "10 µM", "chain of UniProt P16257 (whole entry, looked up)": "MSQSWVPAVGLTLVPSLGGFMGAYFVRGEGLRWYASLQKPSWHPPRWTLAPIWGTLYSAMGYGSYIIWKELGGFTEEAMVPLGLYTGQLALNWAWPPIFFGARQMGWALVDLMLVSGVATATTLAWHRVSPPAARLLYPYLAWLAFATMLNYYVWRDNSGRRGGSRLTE"}
{"SMILES": "CCC(=N\\O)/C(C)=C/c1ccc(F)cc1", "inhibition [%]": 11.9}
{"SMILES": "Nc1c(C(=O)NCc2ccc(C(=O)NCCCC3CCCCC3)cc2)cnn1-c1ccccc1", "inhibition [%]": 27.6}
{"SMILES": "Cn1c(-c2csc(C3CCN(Cc4nc5ncccc5[nH]4)CC3)n2)nc2ccccc21", "inhibition [%]": 13.7}
{"SMILES": "Cc1c(N2CCCC2)nc2ccc(Br)cc2c1C(=O)NC[C@H](CCC(=O)O)c1ccccc1Cl", "inhibition [%]": -2.43}
{"SMILES": "CC(C)CC(=O)N1CCc2nc(-c3ccc(Br)cc3)nc(N(C)Cc3ccccc3)c2C1", "inhibition [%]": 41}
{"SMILES": "CNCc1ccccc1-c1csc([C@@H](C)Nc2nc(C)nc3cc(OC)c(OC)cc23)c1", "inhibition [%]": 13.1}
{"SMILES": "O=C(NCCCC1CCCCC1)c1ccc(CNC(=O)c2cnn(-c3ccccc3)c2C(F)(F)F)cc1", "inhibition [%]": -16.5}
{"data": "Set 2", "cell line": "mouse MPNST tumor cells", "method": "high-content nuclear imaging", "item": "cell number", "concentration": "10 µM", "time": "12 h", "notes": "mean of 2 replicates", "baseline": "plate mean", "reading": "higher = more cells"}
{"Structure (SMILES)": "CCC(=O)[C@@]1(C)[C@H](C)C[C@H]2[C@@H]3CCC4=CC(=O)C=C[C@]4(C)[C@H]3[C@@H](O)C[C@@]21C", "nuclei count [z-score]": 1.62}
{"Structure (SMILES)": "CCOC1O[C@H]([C@@H](COCc2ccccc2)OCc2ccccc2)[C@H](OCc2ccccc2)[C@H]1O (stereo partly drawn)", "nuclei count [z-score]": 1.92}
{"Structure (SMILES)": "O=C1Cc2c([nH]c3ccc(Br)cc23)-c2ccccc2N1", "nuclei count [z-score]": 1.16}
{"Structure (SMILES)": "O=C(NCC(=O)N1CCCCC1)Nc1ccc2nnsc2c1", "nuclei count [z-score]": 1.24}
{"Structure (SMILES)": "COc1cc(CN(CCN)C(=O)c2cccs2)ccc1OCc1ccccc1", "nuclei count [z-score]": 1.93}
{"data": "Set 3", "cell line": "HaCaT", "concentration": "100 µM", "time": "18 h"}
{"SMILES": "CO[C@H]1C[C@@H]2CC[C@@H](C)[C@@](O)(O2)C(=O)C(=O)N2CCCC[C@H]2C(=O)O[C@H]([C@H](C)C[C@@H]2CC[C@@H](OCCO)[C@H](OC)C2)CC(=O)[C@H](C)/C=C(\\C)[C@@H](O)[C@@H](OC)C(=O)[C@H](C)C[C@H](C)/C=C/C=C/C=C/1C", "viability": "29.6%"}
{"SMILES": "CN1C(C(=O)Nc2ccccn2)=C(O)c2sc(Cl)cc2S1(=O)=O", "viability": "70.4%"}
{"SMILES": "COC(=O)C1=CO[C@@H](O)[C@@H]2C(CO)=CC[C@H]12", "viability": "100%"}
{"SMILES": "CCOC(=O)c1c(C)n(C)c2ccc(O)cc12", "viability": "54.7%"}
{"data": "Set 4", "Structure (SMILES)": "Cc1cc(Nc2nc(-c3ccccc3)nc3ccccc23)n[nH]1", "observed": "enzyme activity", "mode": "inhibitor", "concentration": "0.5 µM", "baseline": "control"}
{"target": "RPS6KA2 (Homo sapiens, UniProt Q15349)", "remaining activity": "50.7%"}
{"target": "GSK3B (Homo sapiens, UniProt P49841)", "remaining activity": "27.9%"}
{"target": "MAP3K14 (Homo sapiens, UniProt Q99558)", "remaining activity": "93.5%"}
{"target": "CSNK1G3 (Homo sapiens, UniProt Q9Y6M4)", "remaining activity": "75%"}
{"target": "MAPK3 (Homo sapiens, UniProt P27361)", "remaining activity": "80.8%"}
{"target": "MERTK (Homo sapiens, UniProt Q12866)", "remaining activity": "72.2%"}
{"target": "CSNK1G2 (Homo sapiens, UniProt P78368)", "remaining activity": "69.3%"}
{"target": "NEK1 (Homo sapiens, UniProt Q96PY6)", "remaining activity": "93%"}
{"target": "MST1R (Homo sapiens, UniProt Q04912)", "remaining activity": "96.6%"}
{"target": "MAP3K5 (Homo sapiens, UniProt Q99683)", "remaining activity": "99.5%"}
{"target": "ARAF (Homo sapiens, UniProt P10398)", "remaining activity": "89.7%"}
{"target": "FRK (Homo sapiens, UniProt P42685)", "remaining activity": "72.5%"}
{"target": "TBK1 (Homo sapiens, UniProt Q9UHD2)", "remaining activity": "53.8%"}
{"target": "ACVR1B (Homo sapiens, UniProt P36896)", "remaining activity": "103%"}
{"note": "Repeated from above (set 1):"}
{"SMILES": "Nc1c(C(=O)NCc2ccc(C(=O)NCCCC3CCCCC3)cc2)cnn1-c1ccccc1", "inhibition [%]": 27.6}
{"SMILES": "Cn1c(-c2csc(C3CCN(Cc4nc5ncccc5[nH]4)CC3)n2)nc2ccccc21", "inhibition [%]": 13.7}
{"SMILES": "Cc1c(N2CCCC2)nc2ccc(Br)cc2c1C(=O)NC[C@H](CCC(=O)O)c1ccccc1Cl", "inhibition [%]": -2.43}
{"SMILES": "CC(C)CC(=O)N1CCc2nc(-c3ccc(Br)cc3)nc(N(C)Cc3ccccc3)c2C1", "inhibition [%]": 41}
{"SMILES": "CNCc1ccccc1-c1csc([C@@H](C)Nc2nc(C)nc3cc(OC)c(OC)cc23)c1", "inhibition [%]": 13.1}
